Assay results gathered from unrelated publications.
Each line is one published result; not all experiments were run side by side. “And” joins repeats or separate records; there may be more than shown. Numbers after ± are the reported error.
T1: ssDNA, aptamer; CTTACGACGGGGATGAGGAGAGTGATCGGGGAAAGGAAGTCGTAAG
UniProt Q16774, sequence (whole entry, looked up): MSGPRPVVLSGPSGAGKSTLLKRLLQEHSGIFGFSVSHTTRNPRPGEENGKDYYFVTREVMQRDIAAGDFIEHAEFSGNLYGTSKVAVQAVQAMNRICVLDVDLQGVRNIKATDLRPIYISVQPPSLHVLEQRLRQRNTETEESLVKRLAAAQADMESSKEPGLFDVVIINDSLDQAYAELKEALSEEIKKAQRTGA
UniProt P11388, sequence (whole entry, looked up): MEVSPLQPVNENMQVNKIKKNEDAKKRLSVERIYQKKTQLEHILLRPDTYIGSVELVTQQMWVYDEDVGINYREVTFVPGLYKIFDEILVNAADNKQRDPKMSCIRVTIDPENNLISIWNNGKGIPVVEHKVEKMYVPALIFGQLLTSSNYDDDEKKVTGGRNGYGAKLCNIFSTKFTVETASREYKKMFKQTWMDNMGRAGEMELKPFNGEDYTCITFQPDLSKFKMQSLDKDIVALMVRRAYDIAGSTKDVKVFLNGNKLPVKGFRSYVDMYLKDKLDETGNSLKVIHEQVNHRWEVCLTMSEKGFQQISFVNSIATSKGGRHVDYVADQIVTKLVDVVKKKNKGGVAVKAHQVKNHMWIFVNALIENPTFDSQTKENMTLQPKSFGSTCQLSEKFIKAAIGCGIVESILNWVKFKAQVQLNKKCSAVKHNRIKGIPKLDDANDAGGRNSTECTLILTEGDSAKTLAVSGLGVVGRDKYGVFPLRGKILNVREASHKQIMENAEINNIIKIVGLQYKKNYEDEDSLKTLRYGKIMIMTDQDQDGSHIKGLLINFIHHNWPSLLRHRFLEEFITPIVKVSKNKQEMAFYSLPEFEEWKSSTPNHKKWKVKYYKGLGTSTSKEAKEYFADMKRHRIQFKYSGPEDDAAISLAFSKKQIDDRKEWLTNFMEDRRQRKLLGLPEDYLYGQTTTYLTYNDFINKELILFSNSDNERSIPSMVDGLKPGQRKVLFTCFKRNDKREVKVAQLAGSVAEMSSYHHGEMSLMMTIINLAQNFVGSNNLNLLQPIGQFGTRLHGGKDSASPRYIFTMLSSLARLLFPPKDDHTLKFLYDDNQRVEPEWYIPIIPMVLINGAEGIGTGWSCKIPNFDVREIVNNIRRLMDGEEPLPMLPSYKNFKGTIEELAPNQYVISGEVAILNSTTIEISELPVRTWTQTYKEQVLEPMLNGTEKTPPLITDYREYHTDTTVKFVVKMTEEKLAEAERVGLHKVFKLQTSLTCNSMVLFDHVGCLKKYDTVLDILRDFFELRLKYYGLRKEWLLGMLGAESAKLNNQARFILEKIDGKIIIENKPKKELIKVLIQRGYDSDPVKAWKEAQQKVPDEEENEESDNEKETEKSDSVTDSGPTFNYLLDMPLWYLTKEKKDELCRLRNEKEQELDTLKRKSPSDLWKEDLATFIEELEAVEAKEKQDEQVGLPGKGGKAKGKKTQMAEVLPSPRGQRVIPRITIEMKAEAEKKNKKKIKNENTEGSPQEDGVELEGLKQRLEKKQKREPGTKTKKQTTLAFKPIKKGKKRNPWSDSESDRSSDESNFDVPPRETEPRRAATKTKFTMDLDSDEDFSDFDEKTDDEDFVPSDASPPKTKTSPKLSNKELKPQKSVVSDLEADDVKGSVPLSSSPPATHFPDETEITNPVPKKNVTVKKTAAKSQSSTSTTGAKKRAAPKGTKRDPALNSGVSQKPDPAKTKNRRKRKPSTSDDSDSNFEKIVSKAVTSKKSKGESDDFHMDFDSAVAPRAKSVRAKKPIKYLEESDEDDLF
UniProt Q16853, sequence (whole entry, looked up): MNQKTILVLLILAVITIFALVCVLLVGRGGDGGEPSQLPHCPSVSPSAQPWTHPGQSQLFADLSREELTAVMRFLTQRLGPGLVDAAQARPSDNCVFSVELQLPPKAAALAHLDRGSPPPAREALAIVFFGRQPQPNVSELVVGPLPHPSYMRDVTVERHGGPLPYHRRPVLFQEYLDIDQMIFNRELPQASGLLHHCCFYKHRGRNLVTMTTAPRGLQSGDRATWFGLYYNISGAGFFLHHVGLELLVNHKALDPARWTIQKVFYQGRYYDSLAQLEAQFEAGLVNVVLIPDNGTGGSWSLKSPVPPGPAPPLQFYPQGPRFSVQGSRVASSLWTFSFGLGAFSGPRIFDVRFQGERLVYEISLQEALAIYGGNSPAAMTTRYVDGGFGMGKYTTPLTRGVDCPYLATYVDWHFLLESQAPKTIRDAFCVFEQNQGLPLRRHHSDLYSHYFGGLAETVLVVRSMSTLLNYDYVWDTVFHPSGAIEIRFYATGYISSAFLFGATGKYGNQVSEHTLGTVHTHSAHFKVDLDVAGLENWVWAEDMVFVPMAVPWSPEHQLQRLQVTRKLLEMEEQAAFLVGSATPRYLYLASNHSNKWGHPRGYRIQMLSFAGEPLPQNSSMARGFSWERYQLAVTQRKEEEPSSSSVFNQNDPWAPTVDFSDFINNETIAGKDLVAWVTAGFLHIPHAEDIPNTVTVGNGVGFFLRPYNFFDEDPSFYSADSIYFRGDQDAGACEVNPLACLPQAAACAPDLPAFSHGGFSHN
UniProt P16442, sequence (whole entry, unmodified, looked up): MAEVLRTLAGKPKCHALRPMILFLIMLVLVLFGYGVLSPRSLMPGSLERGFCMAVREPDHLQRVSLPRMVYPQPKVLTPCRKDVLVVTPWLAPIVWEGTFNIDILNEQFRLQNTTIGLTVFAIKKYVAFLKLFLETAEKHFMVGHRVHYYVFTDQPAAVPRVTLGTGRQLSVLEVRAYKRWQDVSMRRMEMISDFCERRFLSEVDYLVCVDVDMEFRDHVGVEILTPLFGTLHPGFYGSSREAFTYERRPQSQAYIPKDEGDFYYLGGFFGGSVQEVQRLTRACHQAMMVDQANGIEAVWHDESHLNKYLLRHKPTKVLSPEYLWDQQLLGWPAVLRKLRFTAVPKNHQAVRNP
UniProt P40337, sequence (whole entry, unmodified, looked up): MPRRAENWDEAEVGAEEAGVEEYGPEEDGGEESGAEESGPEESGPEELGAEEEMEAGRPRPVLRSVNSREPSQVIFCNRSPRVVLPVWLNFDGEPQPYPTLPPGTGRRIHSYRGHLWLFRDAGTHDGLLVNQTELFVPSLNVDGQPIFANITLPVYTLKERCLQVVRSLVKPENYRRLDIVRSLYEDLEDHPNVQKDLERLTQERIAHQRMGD
UniProt Q96NY8, sequence (whole entry, looked up): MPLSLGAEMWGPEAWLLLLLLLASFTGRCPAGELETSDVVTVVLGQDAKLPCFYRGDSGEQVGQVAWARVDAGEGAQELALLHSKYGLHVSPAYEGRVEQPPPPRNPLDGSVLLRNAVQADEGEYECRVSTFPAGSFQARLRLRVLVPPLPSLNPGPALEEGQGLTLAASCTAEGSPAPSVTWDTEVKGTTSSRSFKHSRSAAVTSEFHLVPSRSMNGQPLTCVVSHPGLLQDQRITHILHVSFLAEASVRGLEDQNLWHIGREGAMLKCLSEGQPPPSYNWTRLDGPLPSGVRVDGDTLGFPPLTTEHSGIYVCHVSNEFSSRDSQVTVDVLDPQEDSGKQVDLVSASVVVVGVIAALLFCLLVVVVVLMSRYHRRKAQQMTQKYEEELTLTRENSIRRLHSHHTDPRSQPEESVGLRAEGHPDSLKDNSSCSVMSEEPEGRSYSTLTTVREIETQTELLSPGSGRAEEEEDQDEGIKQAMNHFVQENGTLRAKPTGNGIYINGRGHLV
UniProt Q92207, sequence (whole entry, looked up): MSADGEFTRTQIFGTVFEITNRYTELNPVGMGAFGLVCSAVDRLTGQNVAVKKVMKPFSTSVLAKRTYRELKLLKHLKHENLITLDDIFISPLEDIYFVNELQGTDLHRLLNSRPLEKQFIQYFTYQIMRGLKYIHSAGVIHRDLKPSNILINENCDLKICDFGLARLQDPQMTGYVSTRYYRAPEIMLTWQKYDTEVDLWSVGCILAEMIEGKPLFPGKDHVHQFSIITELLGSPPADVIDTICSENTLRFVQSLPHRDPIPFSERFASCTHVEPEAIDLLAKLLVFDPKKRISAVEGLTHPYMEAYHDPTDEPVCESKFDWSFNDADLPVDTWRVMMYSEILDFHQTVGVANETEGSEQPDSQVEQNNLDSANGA
UniProt P52790, sequence (whole entry, unmodified, looked up): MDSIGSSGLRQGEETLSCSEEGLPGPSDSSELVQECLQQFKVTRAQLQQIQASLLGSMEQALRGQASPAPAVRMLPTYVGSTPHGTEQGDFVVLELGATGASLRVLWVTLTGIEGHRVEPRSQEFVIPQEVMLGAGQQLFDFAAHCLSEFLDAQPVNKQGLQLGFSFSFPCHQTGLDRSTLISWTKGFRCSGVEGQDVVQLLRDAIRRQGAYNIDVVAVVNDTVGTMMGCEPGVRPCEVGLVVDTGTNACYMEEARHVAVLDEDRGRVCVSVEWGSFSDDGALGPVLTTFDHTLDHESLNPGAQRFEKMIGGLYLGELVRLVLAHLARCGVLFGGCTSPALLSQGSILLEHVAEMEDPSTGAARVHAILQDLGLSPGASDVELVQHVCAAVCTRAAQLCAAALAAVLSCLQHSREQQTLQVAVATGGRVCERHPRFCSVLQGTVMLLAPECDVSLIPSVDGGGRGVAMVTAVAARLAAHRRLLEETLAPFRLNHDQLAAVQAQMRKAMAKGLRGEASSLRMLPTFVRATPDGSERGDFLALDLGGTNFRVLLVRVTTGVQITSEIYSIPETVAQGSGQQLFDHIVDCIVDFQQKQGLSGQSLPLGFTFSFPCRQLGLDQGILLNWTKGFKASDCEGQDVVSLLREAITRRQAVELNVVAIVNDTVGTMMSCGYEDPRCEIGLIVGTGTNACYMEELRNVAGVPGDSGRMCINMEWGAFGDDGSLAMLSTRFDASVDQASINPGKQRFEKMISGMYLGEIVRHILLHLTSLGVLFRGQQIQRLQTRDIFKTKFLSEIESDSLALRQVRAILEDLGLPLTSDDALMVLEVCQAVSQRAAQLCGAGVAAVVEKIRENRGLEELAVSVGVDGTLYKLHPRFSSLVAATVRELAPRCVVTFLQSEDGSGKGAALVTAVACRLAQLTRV

`CCN1/C(=C/C(C)=O)Sc2ccc(F)cc21` has a QRS duration of 36 ± 1 ms (cynomolgus monkey; oral, 100 mg/kg, 6 h post-dose).
For `O=C(O)c1ccc(Nc2ncc3c(n2)-c2ccc(Cl)cc2C(c2c(F)cccc2F)=NC3)cc1`, the remaining activity was 46% (Lyn(h); kinase activity; 1 µM).
With `CCOc1c([C@H](C)n2nc(C)c3c(N)ncnc32)cc(Cl)c(F)c1[C@@H]1CNC(=O)C1` the ECG observations was 0% (item: QTcF change above 60 ms; previously treated B-cell malignancy; oral, 10 mg once daily, overall population; baseline: baseline).
`[Cl-].[Na+]` gave a reaction velocity of 0.00487 µM/s and 0.0126 µM/s and 0.0127 µM/s (GUK1 (Homo sapiens, UniProt Q16774); enzyme activity, NADH-coupled; 90 mM).
With `NCc1cc2c(cc1F)C(=O)N(C1CCC(=O)NC1=O)C2` (stereo not drawn) the concentration was 6930 ng/mL and 7510 ng/mL (Amine oxidase [copper-containing] 3 (AOC3, Homo sapiens, UniProt Q16853); substrate, LC-MS/MS; cirrhotic human liver lysate; 62.50 µM, 60 min, pH 7.4).
With `O=c1nc(SCc2cc(F)cc(C(F)(F)F)c2)nc(SCc2ccc3sccc3c2)[nH]1` the linear DNA was 20.1% and 23.6% (DNA topoisomerase 2-alpha (TOP2A, Homo sapiens, UniProt P11388); DNA cleavage, competition with etoposide; 125 µM, added: etoposide 50 µM).
`O=C1c2ccccc2CCN1CCCCN1CCN(c2cccc(Cl)c2Cl)CC1` has an inhibition of 95.3% (5-hydroxytryptamine receptor 2B (HTR2B, Homo sapiens, UniProt P41595); radioligand binding; concentration not given, added: [3H]LSD).
`CC(Nc1nc(N2CCCC2)nc2ccccc12)c1ccccc1` (stereo not drawn) — result for “cells with nuclear reporter”: 93.3% (transportin-1/2; FUS nuclear import, high content imaging; HeLa Kyoto reporter; 0.0158 µM, 2 h).
With `CN1CCC(CNc2ccc3ncc(-c4cccc(OC(F)(F)F)c4)n3n2)CC1` the response was greater than 50% (Alpha-1A adrenergic receptor (ADRA1A, Homo sapiens, UniProt P35348); calcium flux; 10 µM; baseline: control).
`Nc1ncnc2c1ncn2[C@@H]1O[C@H](CO)[C@@H](O)[C@H]1O` has a Kd of 48.8 µM (T1, ssDNA, aptamer; ITC).
With `CCCC[C@@H]1NC(=O)[C@H](Cc2ccc(O)cc2)NC(=O)[C@@H]2CCCN2C(=O)[C@H](CC(=O)O)NC(=O)[C@H](C)NC(=O)[C@H](Cc2ccccc2)NC(=O)[C@@H]2CSCCC(=O)N3CN(CN(C3)C(=O)CCSC[C@@H](C(=O)N[C@@H](C)C(N)=O)NC1=O)C(=O)CCSC[C@H](NC(C)=O)C(=O)N[C@@H](CC(C)(C)C)C(=O)N1CCC[C@H]1C(=O)N[C@@H](CCC(=O)O)C(=O)N[C@H](CCCCNC(=O)CCc1cn(CCOCCOCCOCCOCCOCCC(=O)NCCCC[C@H]3NC(=O)[C@H](Cc4cccc5ccccc45)NC(=O)[C@@H]4CCCN4C(=O)[C@@H](NC(C)=O)CSCCC(=O)N4CN5CN(C4)C(=O)CCSC[C@H](NC3=O)C(=O)N[C@@H](CCSC)C(=O)N[C@@H](CCCCNC(=N)N)C(=O)N[C@@H](CCC(=O)O)C(=O)N[C@@H](Cc3c[nH]c4ccccc34)C(=O)N[C@@H](CO)C(=O)N[C@@H]([C@@H](C)O)C(=O)N3CCC[C@H]3C(=O)N3C[C@H](O)C[C@H]3C(=O)N[C@@H](Cc3c[nH]c4ccccc34)C(=O)N[C@H](C(N)=O)CSCCC5=O)nn1)C(=O)N1CCC[C@H]1C(=O)N[C@@H](Cc1ccc(O)cc1)C(=O)N2` the Emax was 42 fold (Tumor necrosis factor receptor superfamily member 9/Nectin-4 (Homo sapiens, UniProt Q07011+Q96NY8); reporter gene, agonist; HT-1376 coculture with reporter cells; baseline: background).
`CC(=O)N[C@H](C(=O)N1C[C@H](O)C[C@H]1C(=O)NCc1ccc(-c2scnc2C)cc1)C(C)(C)SCCCCCCNC(=O)C[C@@H]1N=C(c2ccc(Cl)cc2)c2c(sc(C)c2C)-n2c(C)nnc21` gave a ΔH of -4.7 ± 0.3 kcal/mol (VHL/BRD3, BD2; with Elongin B/C (Homo sapiens, UniProt P40337+Q15059); ternary complex binding, ITC; 25 °C, added: VHL-ElonginB-ElonginC titrated into compound:PROTAC:Brd3^BD2 complex).
Under “log2 fold change”, `N#Cc1ccn2c(-c3ccncc3)c(-c3ccc(F)cc3)nc2c1` is recorded as -0.221 (Mitogen-activated protein kinase HOG1 (HOG1, Candida albicans, UniProt Q92207); MIB/MS competition binding; Candida albicans cell lysate; 100 nM; baseline: DMSO, lower = stronger binding).
Under “log2 fold change”, `Cn1cc(-c2ccc(-c3cncc(Cl)c3N3CCC4(CCNC4=O)CC3)cc2)cn1` is recorded as -2.03 (COLO 205; gene expression, microarray, item: FABP5 mRNA; concentration not given, 2 h; baseline: untreated cells).
`CC(C)C[C@H](NC(=O)C[C@H](O)[C@H](CC(C)C)NC(=O)[C@H](Cc1c[nH]cn1)NC(=O)CNC(=O)[C@@H](NC(=O)[C@H](C)NC(=O)[C@H](Cc1c[nH]c2ccccc12)NC(=O)[C@H](CCC(N)=O)NC(=O)[C@@H](Cc1ccccc1)NC(=O)COCCOCCNC(=O)CCC(C(=O)O)N1CCN(CC(=O)O)CCN(CC(=O)O)CCN(CC(=O)O)CC1)C(C)C)C(N)=O` (stereo partly drawn) [lutetium-177 labelled] gave a tissue uptake of 0.011 ± 0.001 %ID/g (female BALB/c nu/nu mice, brain; intravenous, 100 pmol, 4 h, added: PA 300 µg).
For `O=c1ccn([C@@H]2O[C@H](COP(=O)(O)OP(=O)(O)O)[C@@H](O)[C@H]2O)c(=O)[nH]1`, “exchange rate constant” read 2 ± 0.5 s⁻¹ (Histo-blood group ABO system transferase (ABO, Homo sapiens, UniProt P16442, G235S/G268A/L266M/R176G); ZZ-exchange NMR; free to compound-bound complex, added: H-disaccharide).
With `Nc1ncnc2c1ncn2[C@@H]1O[C@H](COP(=O)(O)OP(=O)(O)OP(=O)(O)O)[C@@H](O)[C@H]1O` the kcat was 70 ± 7 s⁻¹ (Hexokinase-3 (HK3, Homo sapiens, UniProt P52790, A499V); substrate; mutant A499V, added: glucose 0.5 mM).
For `Nc1ccc(Cc2nnc(NS(=O)(=O)c3ccc(N)cc3)s2)cc1`, the Kii was 102 ± 16 µM (Glutathione hydrolase 1 proenzyme, without transmembrane domain (Homo sapiens, UniProt P19440); GSH hydrolysis, uncompetitive inhibitor; 37 °C, binds gamma-glutamyl enzyme, added: GSH 5-20 µM).

Repeated from above:
With `CCOc1c([C@H](C)n2nc(C)c3c(N)ncnc32)cc(Cl)c(F)c1[C@@H]1CNC(=O)C1` the ECG observations was 0% (item: QTcF change above 60 ms; previously treated B-cell malignancy; oral, 10 mg once daily, overall population; baseline: baseline).
`CC(Nc1nc(N2CCCC2)nc2ccccc12)c1ccccc1` (stereo not drawn) — result for “cells with nuclear reporter”: 93.3% (transportin-1/2; FUS nuclear import, high content imaging; HeLa Kyoto reporter; 0.0158 µM, 2 h).
